# Measurements from different studies.
# Each line is one published result; not all experiments were run side by side. ± gives the spread as reported.
# UniProt Q62968, sequence (whole entry, looked up): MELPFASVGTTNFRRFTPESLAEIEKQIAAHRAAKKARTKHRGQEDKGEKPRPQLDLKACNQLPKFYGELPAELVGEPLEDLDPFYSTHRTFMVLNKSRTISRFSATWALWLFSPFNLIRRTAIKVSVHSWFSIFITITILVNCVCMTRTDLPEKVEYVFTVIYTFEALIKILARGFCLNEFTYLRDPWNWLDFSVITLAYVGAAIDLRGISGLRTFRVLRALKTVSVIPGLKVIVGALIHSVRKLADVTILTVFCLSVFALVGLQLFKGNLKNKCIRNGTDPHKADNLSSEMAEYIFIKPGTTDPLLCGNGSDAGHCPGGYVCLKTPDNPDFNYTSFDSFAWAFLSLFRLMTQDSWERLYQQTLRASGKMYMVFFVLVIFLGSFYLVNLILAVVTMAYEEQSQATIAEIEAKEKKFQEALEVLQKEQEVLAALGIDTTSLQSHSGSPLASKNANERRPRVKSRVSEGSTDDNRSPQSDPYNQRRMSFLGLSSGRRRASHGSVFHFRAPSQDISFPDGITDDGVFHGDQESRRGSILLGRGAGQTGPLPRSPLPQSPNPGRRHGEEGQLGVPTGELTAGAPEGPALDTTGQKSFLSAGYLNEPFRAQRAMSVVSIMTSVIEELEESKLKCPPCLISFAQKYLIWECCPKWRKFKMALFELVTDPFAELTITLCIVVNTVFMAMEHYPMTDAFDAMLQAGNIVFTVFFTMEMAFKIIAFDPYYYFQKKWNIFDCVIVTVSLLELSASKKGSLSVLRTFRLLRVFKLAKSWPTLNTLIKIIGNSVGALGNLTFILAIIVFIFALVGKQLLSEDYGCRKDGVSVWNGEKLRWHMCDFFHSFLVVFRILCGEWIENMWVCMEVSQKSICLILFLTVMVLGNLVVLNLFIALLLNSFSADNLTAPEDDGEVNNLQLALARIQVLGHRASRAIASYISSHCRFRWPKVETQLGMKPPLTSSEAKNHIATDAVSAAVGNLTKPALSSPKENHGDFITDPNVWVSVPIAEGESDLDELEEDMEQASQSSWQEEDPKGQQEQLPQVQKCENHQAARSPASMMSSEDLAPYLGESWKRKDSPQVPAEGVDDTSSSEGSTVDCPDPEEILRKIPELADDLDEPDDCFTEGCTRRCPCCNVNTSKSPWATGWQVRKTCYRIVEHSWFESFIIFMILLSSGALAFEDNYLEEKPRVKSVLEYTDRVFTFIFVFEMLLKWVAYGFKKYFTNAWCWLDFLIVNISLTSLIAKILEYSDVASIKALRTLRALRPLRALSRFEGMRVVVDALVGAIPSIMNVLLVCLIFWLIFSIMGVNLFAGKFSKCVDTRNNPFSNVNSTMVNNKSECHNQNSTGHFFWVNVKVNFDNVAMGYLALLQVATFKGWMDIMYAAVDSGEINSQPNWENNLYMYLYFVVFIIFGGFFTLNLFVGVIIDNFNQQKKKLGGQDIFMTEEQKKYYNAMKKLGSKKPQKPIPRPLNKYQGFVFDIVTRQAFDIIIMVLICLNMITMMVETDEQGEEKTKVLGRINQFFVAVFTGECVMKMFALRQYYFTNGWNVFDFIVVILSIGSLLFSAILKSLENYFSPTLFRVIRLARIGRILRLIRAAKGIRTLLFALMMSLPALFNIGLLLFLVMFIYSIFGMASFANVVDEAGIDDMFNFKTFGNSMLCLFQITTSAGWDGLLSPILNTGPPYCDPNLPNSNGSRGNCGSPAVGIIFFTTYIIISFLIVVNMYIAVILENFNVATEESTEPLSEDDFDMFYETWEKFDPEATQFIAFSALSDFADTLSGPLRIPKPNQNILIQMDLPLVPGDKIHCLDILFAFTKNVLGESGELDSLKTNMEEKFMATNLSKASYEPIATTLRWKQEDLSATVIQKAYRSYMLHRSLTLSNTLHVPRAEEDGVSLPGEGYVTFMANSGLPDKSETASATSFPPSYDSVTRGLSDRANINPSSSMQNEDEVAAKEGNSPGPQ
# UniProt Q9Y6M4, sequence (whole entry, looked up): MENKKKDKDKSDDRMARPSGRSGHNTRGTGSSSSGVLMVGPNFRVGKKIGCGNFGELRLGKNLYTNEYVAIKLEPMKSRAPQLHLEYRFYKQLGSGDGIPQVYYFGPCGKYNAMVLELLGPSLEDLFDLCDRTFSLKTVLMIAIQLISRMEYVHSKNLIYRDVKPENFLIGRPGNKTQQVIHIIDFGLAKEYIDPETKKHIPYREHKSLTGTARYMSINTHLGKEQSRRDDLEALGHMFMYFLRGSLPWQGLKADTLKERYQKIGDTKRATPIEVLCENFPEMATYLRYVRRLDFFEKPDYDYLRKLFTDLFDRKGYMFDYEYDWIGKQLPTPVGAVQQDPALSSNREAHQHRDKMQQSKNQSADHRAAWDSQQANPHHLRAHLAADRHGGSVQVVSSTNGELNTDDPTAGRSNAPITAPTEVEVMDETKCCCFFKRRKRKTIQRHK
Structure (SMILES),target or system,test,system,setting,scale,endpoint,value
C=Cc1cc(O)cc2nc(-c3ccc(O)c([76Br])c3)oc12,,,"female C57BL/6 mouse, blood","1 h, high dose, together with: estradiol 20 µg blocking",,tissue uptake,0.41 ± 0.1 %ID/g
N=C(N)NCc1ccc(C(=O)NCCCC[C@H](NC(=O)N[C@@H](CCC(=O)O)C(=O)O)C(=O)O)cc1[131I],,,"SCID mouse, PC-3 xenografts, stomach",2 h,,tissue uptake,0.6 ± 0.15 %ID/g
COc1cc2ncnc(Oc3cccc(N[11C](=O)Nc4cc(C(C)(C)C(F)(F)F)on4)c3)c2cc1OC,,,"Balb/c nude mouse, female, A375 melanoma xenograft, large intestine","6.6 MBq, 30 min",,tissue uptake,4.88 ± 0.25 %ID/g
N=C(N)NCCC[C@@H]1NC(=O)[C@H](CCCCNC(=O)CNC(=O)CNC(=O)CNC(=O)CC[C@H](NC(=O)CCOCCOCCOCCOCCNC(=O)CC[C@H](NC(=O)CN2CCN(CC(=O)O)CCN(CC(=O)O)CCN(CC(=O)O)CC2)C(=O)NCCOCCOCCOCCOCCC(=O)N[C@@H](CCC(=O)NCC(=O)NCC(=O)NCC(=O)NCCCC[C@@H]2NC(=O)[C@@H](Cc3ccccc3)NC(=O)[C@H](CC(=O)O)NC(=O)CNC(=O)[C@H](CCCNC(=N)N)NC2=O)C(=O)NCC(=O)NCC(=O)NCC(=O)NCCCC[C@@H]2NC(=O)[C@@H](Cc3ccccc3)NC(=O)[C@H](CC(=O)O)NC(=O)CNC(=O)[C@H](CCCNC(=N)N)NC2=O)C(=O)NCC(=O)NCC(=O)NCC(=O)NCCCC[C@@H]2NC(=O)[C@@H](Cc3ccccc3)NC(=O)[C@H](CC(=O)O)NC(=O)CNC(=O)[C@H](CCCNC(=N)N)NC2=O)NC(=O)[C@@H](Cc2ccccc2)NC(=O)[C@H](CC(=O)O)NC(=O)CNC1=O [indium-111 labelled],,,"athymic nude mouse, U-87 MG xenograft, tumour",,,washout half-life,~35 h
COc1ccc(C)cc1NC(=O)OC1CC2CCCC(C1)N2Cc1ccc(CC[18F])cc1 (stereo not drawn),,,"BALB/c mice, EMT6 tumour, brain",1 h,,tissue uptake,1.55 ± 0.4 %ID/g
CCN(Cc1ccccc1)C(=O)CCc1nc(CN2CCN(C(=O)Cc3ccc(OC)c(OC)c3)CC2)no1,"Sodium channel protein type 10 subunit alpha (Scn10a, Rattus norvegicus, UniProt Q62968)","sodium current, whole-cell patch clamp",rat DRG neurons,3 µM,,inactivation V1/2,-67.2 ± 1.3 mV
COc1cc(C(=O)NCCOCCOCCOCCNC(=O)c2ccc([18F])nc2)ccc1NC(=O)C1NC(CC(C)(C)C)C(C#N)(c2ccc(Cl)cc2F)C1c1cccc(Cl)c1F (stereo not drawn),SJSA-1 tumour model,,"host not given, heart","2 h, tumour-bearing",,tracer uptake,0.48 %ID/g
O=C(O)CCC(NP(=O)(O)OCCC[C@@H](NC(=O)CCC(NC(=O)CCCCCNC(=O)CCCCCNC(=O)c1ccc([18F])cc1)C(=O)O)C(=O)O)C(=O)O (stereo partly drawn),PC-3 tumour model,,"host not given, blood","intravenous, 2 h, tumour-bearing",,tracer uptake,0.02 %ID/g
CN(C)c1ccc(C(=O)NCCCCN2CCN(c3ccccc3O[11CH3])CC2)cc1,,,"male Sprague Dawley rat, liver","iv, 30 min",relative to: untreated,tissue uptake,2.1 %ID/g
N=C(N)NCc1ccc(C(=O)NCCCC[C@H](NC(=O)CCCCCCC(=O)NCCCC[C@H](NC(=O)N[C@@H](CCC(=O)O)C(=O)O)C(=O)O)C(=O)O)cc1[131I],,,"SCID mouse, PC-3 xenografts, spleen",1 h,,tissue uptake,9.83 ± 3.28 %ID/g
CCN(CC)c1ccc2c(-c3ccccc3C(=O)OCCOCC[18F])c3ccc(=[N+](CC)CC)cc-3oc2c1,,,"rat, muscle",60 min,,tissue uptake,0.54 ± 0.07 %ID/g
CCCC[C@H](NC(=O)CN1CCC(NC(=O)CN2CCC(NC(=O)CN3CCN(CC(=O)O)CCN(CC(=O)O)CCN(CC(=O)O)CC3)CC2)CC1)C(=O)N[C@H]1CC(=O)NCCCC[C@@H](C(N)=O)NC(=O)[C@H](Cc2c[nH]c3ccccc23)NC(=O)[C@H](CCCNC(=N)N)NC(=O)[C@@H](Cc2ccccc2)NC(=O)[C@H](Cc2c[nH]cn2)NC1=O [gallium-68 labelled],,,"C57BL/6J mice male B16-F10 tumour, blood","1 h post injection, unblocked",,tissue uptake,0.5 ± 0.2 %ID/g
N=C(N)NCc1ccc(C(=O)NCCCC[C@H](NC(=O)N[C@@H](CCC(=O)O)C(=O)O)C(=O)O)cc1[211At],,,"SCID mouse, PC-3 xenografts, bone",1 h,,tissue uptake,0.87 ± 0.28 %ID/g
"O=C(c1ccc(F)cc1)C1CCN(C2Cc3c(cccc3OCC[18F])CC2O)CC1 (single isomer, unassigned; (-))",,,"Sprague-Dawley rat, male, pancreas","intravenous, dose not given, 5 min",,tissue uptake,1.2 ± 0.323 %ID/g
CC(=O)NC(Cc1ccc(Br)c(Cl)c1)C(=O)N[C@@H](C)C(=O)N1CCC[C@H]1C(=O)N1CCC[C@H]1C(=O)N[C@@H](CCC(=O)O)C(=O)N[C@@H](Cc1c[nH]cn1)C(=O)N[C@@H](CO)C(=O)N[C@H](C(=O)N[C@@H](C)C(N)=O)[C@@H](C)OP(=O)(O)O (stereo partly drawn),"Casein kinase I isoform gamma-3 (CSNK1G3, Homo sapiens, UniProt Q9Y6M4)",,,10 µM,,inhibition,0.42 ± 0.02%
N=C(N)NCc1ccc(C(=O)NCCCC[C@H](NC(=O)CCCCCCC(=O)NCCCC[C@H](NC(=O)N[C@@H](CCC(=O)O)C(=O)O)C(=O)O)C(=O)O)cc1[211At],,,"SCID mouse, PC-3 xenografts, heart",2 h,,tissue uptake,0.76 ± 0.11 %ID/g
O=C(O)CC[C@H](NC(=O)O[C@@H](CCCCNC(=O)c1ccc([18F])cc1)C(=O)O)C(=O)O,,,"mouse, PC-3 PIP/flu xenografts, spleen",60 min,,tissue uptake,0.45 ± 0.31 %ID/g
CCN(CC)c1ccc2c(-c3ccccc3C(=O)OCCC[18F])c3ccc(=[N+](CC)CC)cc-3oc2c1,,,"rat, kidney",60 min,,tissue uptake,8.26 ± 1.62 %ID/g
CN[C@](C)(C[18F])C(=O)O,,,"SCID mouse U87 xenograft, spleen","15 min, post injection",,tissue uptake,12 ± 1.9 %ID/g
CCNc1cc2[o+]c3cc(NCC)c(C)cc3c(-c3ccccc3C(=O)OCCOCC[18F])c2cc1C,,,"rat, spleen",60 min,,tissue uptake,2.01 ± 0.61 %ID/g
CCCC[C@H](NC(=O)CNC(=O)CNC(=O)c1ccc(NN)nc1)C(=O)N[C@H]1CC(=O)NCCCC[C@@H](C(N)=O)NC(=O)[C@H](Cc2c[nH]c3ccccc23)NC(=O)[C@H](CCCNC(=N)N)NC(=O)[C@@H](Cc2ccccc2)NC(=O)[C@H](Cc2c[nH]cn2)NC1=O [technetium-99m labelled],,,"C57 mouse, B16/F1 melanoma","2 h, together with: L-lysine",relative to: tumour over skin,uptake ratio,61.3
O=C(O)CCC(NP(=O)(O)OCCC[C@@H](NC(=O)CCC(NC(=O)CCCCCNC(=O)c1ccc([18F])cc1)C(=O)O)C(=O)O)C(=O)O (stereo partly drawn),PC-3 tumour model,,"host not given, heart","intravenous, 2 h, tumour-bearing",,tracer uptake,0.21 %ID/g
CC(C)C[C@@H](NC(=O)[C@@H](CCCNC(=N)N)NC(=O)[C@@H](Cc1c[nH]cn1)NC(=O)[C@@H](Cc1c[nH]c2ccccc12)NC(=O)[C@@H](Cc1c[nH]cn1)NC(=O)[C@@H](Cc1ccccc1)NC(=O)[C@H](NC(=O)[C@@H](Cc1ccc(O)cc1)NC(=O)CNC(=O)CNC(=O)CCOCCOCCOCCNC(=O)CN1CCN(CC(=O)O)CCN(CC(=O)O)CC1)[C@H](C)O)C(=O)N[C@H](CC(N)=O)C(=O)N1CCC[C@@H]1C(=O)O [gallium-68 labelled],,dynamic PET,"male C57BL/6 mice, tumour","intravenous, 60 min",,tissue uptake,4.22 ± 0.68 %ID/g
CC[C@H](C)C(=O)N1CCC(NC(=O)Nc2ccc(OC(F)(F)F)c(F)c2)CC1,,,healthy volunteers,"oral, 0.5 mg single dose",,subjects with headache TEAE,16.7%

# A few entries again:
Structure (SMILES),target or system,test,system,setting,scale,endpoint,value
O=C(O)CC[C@H](NC(=O)O[C@@H](CCCCNC(=O)c1ccc([18F])cc1)C(=O)O)C(=O)O,,,"mouse, PC-3 PIP/flu xenografts, spleen",60 min,,tissue uptake,0.45 ± 0.31 %ID/g
CCCC[C@H](NC(=O)CN1CCC(NC(=O)CN2CCC(NC(=O)CN3CCN(CC(=O)O)CCN(CC(=O)O)CCN(CC(=O)O)CC3)CC2)CC1)C(=O)N[C@H]1CC(=O)NCCCC[C@@H](C(N)=O)NC(=O)[C@H](Cc2c[nH]c3ccccc23)NC(=O)[C@H](CCCNC(=N)N)NC(=O)[C@@H](Cc2ccccc2)NC(=O)[C@H](Cc2c[nH]cn2)NC1=O [gallium-68 labelled],,,"C57BL/6J mice male B16-F10 tumour, blood","1 h post injection, unblocked",,tissue uptake,0.5 ± 0.2 %ID/g
N=C(N)NCc1ccc(C(=O)NCCCC[C@H](NC(=O)N[C@@H](CCC(=O)O)C(=O)O)C(=O)O)cc1[211At],,,"SCID mouse, PC-3 xenografts, bone",1 h,,tissue uptake,0.87 ± 0.28 %ID/g
